Published values of several laboratories.
Protocols differ between the studies behind these lines. ± marks the error that the study gave.
GBA2: Beta-glucosidase (GBA2, Homo sapiens, UniProt Q9HCG7)
Sequence of UniProt Q9HCG7 (whole entry, looked up): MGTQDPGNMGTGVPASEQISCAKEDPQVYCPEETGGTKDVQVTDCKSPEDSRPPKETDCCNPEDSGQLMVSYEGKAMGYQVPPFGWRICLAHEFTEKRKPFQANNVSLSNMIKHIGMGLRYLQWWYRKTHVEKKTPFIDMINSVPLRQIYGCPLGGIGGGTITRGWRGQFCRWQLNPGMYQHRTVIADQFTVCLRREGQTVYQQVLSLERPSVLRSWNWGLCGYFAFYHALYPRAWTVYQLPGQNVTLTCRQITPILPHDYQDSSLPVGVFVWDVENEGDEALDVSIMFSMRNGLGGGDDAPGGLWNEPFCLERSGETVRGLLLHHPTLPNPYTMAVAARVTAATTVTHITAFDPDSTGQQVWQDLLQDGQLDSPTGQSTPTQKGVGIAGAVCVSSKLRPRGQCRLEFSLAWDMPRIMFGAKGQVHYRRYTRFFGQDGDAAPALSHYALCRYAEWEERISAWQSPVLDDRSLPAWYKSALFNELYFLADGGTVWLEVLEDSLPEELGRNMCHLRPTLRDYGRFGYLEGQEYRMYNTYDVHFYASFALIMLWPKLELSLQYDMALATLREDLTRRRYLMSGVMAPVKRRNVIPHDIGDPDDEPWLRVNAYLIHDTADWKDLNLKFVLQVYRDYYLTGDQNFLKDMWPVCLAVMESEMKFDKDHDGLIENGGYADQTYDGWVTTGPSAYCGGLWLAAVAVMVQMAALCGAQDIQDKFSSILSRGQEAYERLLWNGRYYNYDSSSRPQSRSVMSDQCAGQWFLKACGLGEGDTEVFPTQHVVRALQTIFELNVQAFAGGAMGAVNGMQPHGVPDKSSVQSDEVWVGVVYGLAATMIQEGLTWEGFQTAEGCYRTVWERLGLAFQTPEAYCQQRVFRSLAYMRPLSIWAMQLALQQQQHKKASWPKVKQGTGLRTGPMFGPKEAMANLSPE
PIK3CG: Phosphatidylinositol 4,5-bisphosphate 3-kinase catalytic subunit gamma isoform (PIK3CG, Homo sapiens, UniProt P48736)
Sequence of UniProt P48736 (whole entry, looked up): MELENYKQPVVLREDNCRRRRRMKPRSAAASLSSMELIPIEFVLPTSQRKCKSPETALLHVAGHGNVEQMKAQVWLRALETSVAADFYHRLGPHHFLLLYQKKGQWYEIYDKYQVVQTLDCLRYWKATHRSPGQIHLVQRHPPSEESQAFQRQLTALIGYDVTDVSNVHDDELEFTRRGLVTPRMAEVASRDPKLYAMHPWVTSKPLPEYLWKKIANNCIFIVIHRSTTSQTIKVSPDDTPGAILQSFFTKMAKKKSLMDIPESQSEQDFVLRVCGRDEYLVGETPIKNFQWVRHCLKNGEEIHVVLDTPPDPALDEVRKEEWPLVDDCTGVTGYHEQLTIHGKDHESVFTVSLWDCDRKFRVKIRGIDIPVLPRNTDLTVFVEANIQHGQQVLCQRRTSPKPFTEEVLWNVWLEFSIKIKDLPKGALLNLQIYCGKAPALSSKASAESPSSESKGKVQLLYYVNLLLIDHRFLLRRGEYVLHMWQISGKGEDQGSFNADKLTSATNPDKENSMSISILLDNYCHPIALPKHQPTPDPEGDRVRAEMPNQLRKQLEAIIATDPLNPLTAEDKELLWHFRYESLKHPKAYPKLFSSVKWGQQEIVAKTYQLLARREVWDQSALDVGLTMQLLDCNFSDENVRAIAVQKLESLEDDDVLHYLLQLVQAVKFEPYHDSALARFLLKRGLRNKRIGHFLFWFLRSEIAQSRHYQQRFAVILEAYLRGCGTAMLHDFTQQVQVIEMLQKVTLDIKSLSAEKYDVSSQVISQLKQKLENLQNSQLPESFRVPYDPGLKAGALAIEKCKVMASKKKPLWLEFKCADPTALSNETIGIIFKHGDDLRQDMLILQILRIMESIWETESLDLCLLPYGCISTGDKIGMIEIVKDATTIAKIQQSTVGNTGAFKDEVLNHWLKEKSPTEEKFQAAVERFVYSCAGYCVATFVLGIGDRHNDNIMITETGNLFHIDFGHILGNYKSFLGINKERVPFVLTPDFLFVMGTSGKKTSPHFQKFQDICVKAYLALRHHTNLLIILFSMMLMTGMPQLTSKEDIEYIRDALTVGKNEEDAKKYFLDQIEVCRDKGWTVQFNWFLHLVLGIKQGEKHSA
Chymotrypsinogen A: Chymotrypsinogen A (Bos taurus, UniProt P00766)
PPARA ligand-binding domain: Peroxisome proliferator-activated receptor alpha, ligand-binding domain (PPARA, Homo sapiens, UniProt Q07869)
Sequence of UniProt Q07869 (whole entry, looked up): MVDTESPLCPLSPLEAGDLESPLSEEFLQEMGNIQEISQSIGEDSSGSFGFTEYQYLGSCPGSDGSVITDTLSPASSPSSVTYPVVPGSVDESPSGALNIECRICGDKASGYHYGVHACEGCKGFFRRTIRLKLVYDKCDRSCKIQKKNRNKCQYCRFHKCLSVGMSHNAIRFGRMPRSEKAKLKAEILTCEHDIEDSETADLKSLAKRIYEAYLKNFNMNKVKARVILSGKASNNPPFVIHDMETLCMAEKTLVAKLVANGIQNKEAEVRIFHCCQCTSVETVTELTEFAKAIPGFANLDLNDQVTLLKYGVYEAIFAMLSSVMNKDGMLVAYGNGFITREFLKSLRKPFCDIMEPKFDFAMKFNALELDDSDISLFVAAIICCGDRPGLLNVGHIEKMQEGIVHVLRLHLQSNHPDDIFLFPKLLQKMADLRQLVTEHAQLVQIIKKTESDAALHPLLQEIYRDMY
Sensor histidine kinase AirS: Sensor histidine kinase AirS (Staphylococcus aureus, UniProt Q2FX96)
SIRT2: NAD-dependent protein deacetylase sirtuin-2 (SIRT2, Homo sapiens, UniProt Q8IXJ6)
Sequence of UniProt Q8IXJ6 (whole entry, looked up): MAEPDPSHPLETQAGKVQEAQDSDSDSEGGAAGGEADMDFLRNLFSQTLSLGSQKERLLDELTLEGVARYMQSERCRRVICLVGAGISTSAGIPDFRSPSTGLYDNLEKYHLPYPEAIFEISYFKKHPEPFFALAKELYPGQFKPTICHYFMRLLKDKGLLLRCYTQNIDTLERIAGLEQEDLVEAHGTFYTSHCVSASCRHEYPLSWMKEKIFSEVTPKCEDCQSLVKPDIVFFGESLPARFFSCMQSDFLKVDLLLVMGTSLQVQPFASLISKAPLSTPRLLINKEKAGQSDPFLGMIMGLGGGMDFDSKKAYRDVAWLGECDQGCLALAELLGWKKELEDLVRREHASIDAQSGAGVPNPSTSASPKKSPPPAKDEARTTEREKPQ
Sequence of UniProt P42229 (whole entry, looked up): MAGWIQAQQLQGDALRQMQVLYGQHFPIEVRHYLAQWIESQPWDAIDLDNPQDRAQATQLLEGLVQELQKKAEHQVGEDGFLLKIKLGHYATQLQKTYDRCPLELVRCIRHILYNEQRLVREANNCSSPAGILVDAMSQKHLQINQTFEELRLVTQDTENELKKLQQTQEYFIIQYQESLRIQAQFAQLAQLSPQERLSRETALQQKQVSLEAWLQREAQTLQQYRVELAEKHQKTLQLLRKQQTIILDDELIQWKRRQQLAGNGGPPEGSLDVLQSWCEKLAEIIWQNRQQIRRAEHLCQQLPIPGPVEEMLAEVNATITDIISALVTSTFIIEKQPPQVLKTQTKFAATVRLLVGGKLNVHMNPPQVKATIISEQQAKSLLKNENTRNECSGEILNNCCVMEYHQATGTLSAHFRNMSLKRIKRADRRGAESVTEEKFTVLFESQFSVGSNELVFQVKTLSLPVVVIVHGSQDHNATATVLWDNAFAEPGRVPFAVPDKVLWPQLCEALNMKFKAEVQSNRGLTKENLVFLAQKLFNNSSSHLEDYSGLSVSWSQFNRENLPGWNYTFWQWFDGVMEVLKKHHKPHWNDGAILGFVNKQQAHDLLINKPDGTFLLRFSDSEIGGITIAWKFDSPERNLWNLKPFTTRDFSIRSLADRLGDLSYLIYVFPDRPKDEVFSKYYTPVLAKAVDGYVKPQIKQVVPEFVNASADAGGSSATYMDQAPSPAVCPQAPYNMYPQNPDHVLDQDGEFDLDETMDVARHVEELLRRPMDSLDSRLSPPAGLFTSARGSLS
Sequence of UniProt Q8TBX8 (whole entry, looked up): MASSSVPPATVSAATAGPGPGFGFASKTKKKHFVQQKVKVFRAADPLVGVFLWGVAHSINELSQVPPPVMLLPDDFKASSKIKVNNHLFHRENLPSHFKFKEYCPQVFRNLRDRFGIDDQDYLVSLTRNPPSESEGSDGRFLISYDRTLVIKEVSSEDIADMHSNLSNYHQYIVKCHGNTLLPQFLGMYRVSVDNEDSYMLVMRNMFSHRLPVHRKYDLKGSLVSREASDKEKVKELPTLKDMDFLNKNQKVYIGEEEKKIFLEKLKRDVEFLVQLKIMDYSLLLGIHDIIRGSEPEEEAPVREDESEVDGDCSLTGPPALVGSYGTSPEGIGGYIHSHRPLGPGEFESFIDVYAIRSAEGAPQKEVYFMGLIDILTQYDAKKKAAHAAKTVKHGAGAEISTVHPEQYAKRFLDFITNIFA
Sequence of UniProt Q99436 (whole entry, looked up): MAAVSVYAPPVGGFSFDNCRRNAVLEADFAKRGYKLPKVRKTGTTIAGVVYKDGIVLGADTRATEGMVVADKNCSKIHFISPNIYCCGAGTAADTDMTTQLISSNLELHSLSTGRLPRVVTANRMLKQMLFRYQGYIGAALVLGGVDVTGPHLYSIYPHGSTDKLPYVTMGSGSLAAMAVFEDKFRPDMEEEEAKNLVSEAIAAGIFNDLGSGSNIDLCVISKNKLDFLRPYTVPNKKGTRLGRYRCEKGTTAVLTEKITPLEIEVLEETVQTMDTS
Sequence of UniProt P10997 (whole entry, looked up): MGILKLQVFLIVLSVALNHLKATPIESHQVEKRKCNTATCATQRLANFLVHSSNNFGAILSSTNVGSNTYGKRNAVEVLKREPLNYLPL
Sequence of UniProt Q04771 (whole entry, looked up): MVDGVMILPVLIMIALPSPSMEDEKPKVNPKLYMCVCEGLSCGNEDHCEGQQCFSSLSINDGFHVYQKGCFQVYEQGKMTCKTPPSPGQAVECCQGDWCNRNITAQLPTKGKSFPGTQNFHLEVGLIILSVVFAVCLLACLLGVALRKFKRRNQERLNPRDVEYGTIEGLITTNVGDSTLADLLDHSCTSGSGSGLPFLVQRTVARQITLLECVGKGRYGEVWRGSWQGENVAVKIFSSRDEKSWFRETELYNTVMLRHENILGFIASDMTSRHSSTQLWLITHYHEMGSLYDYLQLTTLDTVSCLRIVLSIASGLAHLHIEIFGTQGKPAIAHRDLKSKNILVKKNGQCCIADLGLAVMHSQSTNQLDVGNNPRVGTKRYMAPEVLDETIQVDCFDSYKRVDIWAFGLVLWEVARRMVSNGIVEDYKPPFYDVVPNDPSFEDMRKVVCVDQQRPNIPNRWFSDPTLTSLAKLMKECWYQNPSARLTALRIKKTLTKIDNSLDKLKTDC

`Oc1ccc([C@H]2CCc3ccc(O)cc3O2)cc1` has an IC50 of over 10000 nM (Polyunsaturated fatty acid 5-lipoxygenase (ALOX5, Homo sapiens, UniProt P09917); enzyme activity, inhibitor).
With `CN1CCCC1C(=O)NC(Cc1ccc(-n2cccn2)cc1)B(O)O` (stereo not drawn) the IC50 was over 10000 nM (Proteasome subunit beta type-3/PSMB7 (Homo sapiens, UniProt P49720+Q99436); β2c trypsin-like activity, inhibitor; constitutive proteasome, added: Ac-KQL-AMC).
The IC50 of `CCOc1cc(CN2CC3(CC(N4CCC(C(=O)O)CC4)=NO3)C2)cc(OCC)c1-c1ccc(F)cc1` is reported as 1580 nM (Somatostatin receptor type 5 (SSTR5, Homo sapiens, UniProt P35346, I202A); cAMP level, antagonist, GloSensor; AD293; I202A mutant, bandwidth 5.39, added: CST17 EC80 and forskolin).
`OC[C@@H]1[C@@H](O)[C@H](O)[C@@H](O)CN1CCCCCOCc1ccc(-c2ccccc2)cn1` gave an IC50 of 3 nM (GBA2; inhibitor, 4MU-β-D-glucopyranoside; HEK293T homogenates overexpressing GBA2).
For `COc1ccccc1/C=C1\C(=O)Nc2ccc(Nc3nc(C)nc4ccccc34)cc21`, the IC50 was 51 nM (PIK3CG; enzyme activity, inhibitor, ADP detection).
The IC50 of `CCOc1ccc(NC(=O)C(C(F)(F)F)C(F)(F)F)cc1` is reported as 27000 nM (Chymotrypsinogen A; enzyme activity, inhibitor, fluorescence).
`O=C1Nc2c(Br)cccc2/C1=C1/Nc2ccccc2C1=NO` has an IC50 of over 10000 nM (Mitogen-activated protein kinase 14 (MAPK14, Homo sapiens, UniProt Q16539)).
For `COc1cc(-c2ccc3c(c2)Nc2ccc(C(=O)N4CCCC4C(=O)O)cc2NC3=O)ccc1O` (stereo not drawn), the IC50 was 139 nM (Serine/threonine-protein kinase Chk1 (CHEK1, Homo sapiens, UniProt O14757); enzyme activity, inhibitor).
For `CC(C)(C)OC(=O)c1cccc(NC(=O)C(C(F)(F)F)C(F)(F)F)c1`, the IC50 was over 100000 nM (Chymotrypsinogen A; enzyme activity, inhibitor, fluorescence).
The IC50 of `Cc1c(Cc2cccc(OC(C)(C)C(=O)O)c2)c2ccc(C(=O)N[C@@H](C)c3cccc(C(C)(C)C)c3)cc2n1C(C)C` is reported as 6340 nM (PPARA ligand-binding domain; reporter gene, luciferase reporter; HEK293T, Gal4-PPARα LBD).
`NCCOc1ccccc1NC(=O)C(C(F)(F)F)C(F)(F)F` gave an IC50 of 273000 nM (Chymotrypsinogen A; enzyme activity, inhibitor, fluorescence).
With `O=C(CCCCCN1C[C@H](O)[C@@H](O)[C@H](O)[C@@H]1CO)NC12CC3CC(CC(C3)C1)C2` the IC50 was 15 nM (GBA2; inhibitor, 4MU-β-D-glucopyranoside; HEK293T homogenates overexpressing GBA2).
With `O=C1NC(=O)C(n2cnc3ccccc32)=C1c1ccccc1` the IC50 was over 781000 nM (Sensor histidine kinase AirS; autophosphorylation, inhibitor, BODIPY-FL-ATPγS in-gel fluorescence; lower bound of confidence interval).
For `CCCCCCN1C[C@H](O)[C@@H](O)[C@H](O)[C@H]1CO`, the IC50 was 110 nM (GBA2; inhibitor, 4MU-β-D-glucopyranoside; HEK293T homogenates overexpressing GBA2).
The IC50 of `Cc1ccc2c(c1Br)C(O)(CC(=O)c1ccc3c(c1)OCO3)C(=O)N2` (stereo not drawn) is reported as 42200 nM (Uncharacterized protein (Trypanosoma brucei brucei, UniProt Q386Q8); enzyme activity, inhibitor, coupled colorimetric; added: E. coli pyrophosphatase coupling).
For `CCC1(CC)CC(=O)N(C2CCOc3ccc(C(=O)NC4CC(C)(C)Oc5ccccc54)cc32)C(=N)N1` (stereo not drawn), the IC50 was over 20000 nM (Cytochrome P450 2C8 (CYP2C8, Homo sapiens, UniProt P10632); enzyme activity, inhibitor).
`OC[C@@H]1[C@@H](O)[C@H](O)[C@@H](O)CN1CCCCCOCc1ccc(-c2cccc(F)c2)cc1` gave an IC50 of 1 nM (GBA2; inhibitor, 4MU-β-D-glucopyranoside; HEK293T homogenates overexpressing GBA2).
For `O=C(CCCCc1ccc(OP(=O)(O)O)c(OP(=O)(O)O)c1)N1CCCCC1`, the IC50 was 42000 nM (Signal transducer and activator of transcription 5A, SH2 (Homo sapiens, UniProt P42229); ligand displacement, FP).
The IC50 of `Cc1c(Cc2ccc(OC(C)C(=O)O)cc2)c2ccc(C(=O)N[C@@H](C)c3ccc(C(C)C)cc3)cc2n1C` (stereo partly drawn) is reported as 12700 nM (PPARA ligand-binding domain; reporter gene, luciferase reporter; HEK293T, Gal4-PPARα LBD).
With `CCCCCOCCCCCN1C[C@H](O)[C@@H](O)[C@H](O)[C@@H]1CO` the IC50 was 15 nM (GBA2; inhibitor, 4MU-β-D-glucopyranoside; HEK293T homogenates overexpressing GBA2).
`COCC1CN(C2CCN(c3cc(OC)c(Nc4ncc(Br)c(Nc5ccc6c(c5P(C)(C)=O)OCCO6)n4)cc3C)CC2)C1` gave an IC50 of 81 nM (Serine/threonine-protein kinase D1 (PRKD1, Homo sapiens, UniProt Q15139); enzyme activity, inhibitor).
`CC1Cc2ccccc2N1C1=C(c2ccccc2)C(=O)NC1=O` (stereo not drawn) gave an IC50 of 153000 nM (Sensor histidine kinase AirS; autophosphorylation, inhibitor, BODIPY-FL-ATPγS in-gel fluorescence; lower bound of confidence interval).
The IC50 of `Clc1ccc(NN=C(c2ccccc2)c2ccccn2)nc1` is reported as 435 nM (Lysine-specific demethylase 4B (KDM4B, Homo sapiens, UniProt O94953); enzyme activity, inhibitor, ELISA).
With `CN(C)c1ccc(/N=N/c2ccc(C(=O)OCCOCCN)cc2)cc1` the IC50 was 370 nM (Islet amyloid polypeptide (IAPP, Homo sapiens, UniProt P10997); ThT displacement, ThT fluorescence; pH 7.4, preformed target-ThT complex, added: 5 µM ThT).
For `OC[C@H]1[C@@H](O)[C@H](O)[C@@H](O)CN1CCCCCOCc1ccc(-c2ccccc2)cc1C(F)(F)F`, the IC50 was 0.1 nM (GBA2; inhibitor, 4MU-β-D-glucopyranoside; HEK293T homogenates overexpressing GBA2).
With `Cc1c(Cc2cc(Cl)cc(O[C@H](C)C(=O)O)c2)c2ccc(C(=O)N[C@@H](C)c3ccc(C(C)(C)C)cc3)cc2n1CC1CCC1` the IC50 was 230 nM (PPARA ligand-binding domain; reporter gene, luciferase reporter; HEK293T, Gal4-PPARα LBD).
For `Cc1ccc(CN2C3(NC(c4ccc(C)cc4)C24C(=O)Nc2ccccc24)C(=O)Nc2ccccc23)cc1` (stereo not drawn), the IC50 was 50.9 nM (PIK3CG; enzyme activity, inhibitor, ADP detection).
The IC50 of `Cc1cc(-c2cc(=O)c3c(O)cc(O)c([C@H]4CCN(C)C[C@H]4O)c3o2)no1` is reported as 19.9 nM (Cyclin-dependent kinase 9, with cyclin T1 (CDK9, Homo sapiens, UniProt P50750); kinase activity, inhibitor; added: Cyclin T1 complex, GST-CTD substrate).
`CC(C)(C)OC(=O)c1ccccc1NC(=O)C(C(F)(F)F)C(F)(F)F` has an IC50 of 32000 nM (Chymotrypsinogen A; enzyme activity, inhibitor, fluorescence).
With `Cc1nn(-c2cccc(N)c2)c(=O)c2cnc(Nc3ccc(N4CCNCC4)cc3)nc12` the IC50 was over 10000 nM (Proto-oncogene tyrosine-protein kinase receptor Ret (RET, Homo sapiens, UniProt P07949); enzyme activity, inhibitor).
`CCN(CC)CC(=O)Nc1cccc(-n2cc(-c3ccc4ccc(-c5cn(-c6cccc(NC(=O)CN(CC)CC)c6)nn5)cc4c3)nn2)c1` has an IC50 of over 10000 nM (Activin receptor type-1 (ACVR1, Homo sapiens, UniProt Q04771); enzyme activity, inhibitor).
The IC50 of `COc1cc(F)c(-c2cc(Cn3cnc4c(N)ncnc43)c(N3CCC[C@](N)([C@H](O)C(F)F)C3)cn2)cc1F` is reported as 8740 nM (Histone-lysine N-methyltransferase NSD3 (NSD3, Homo sapiens, UniProt Q9BZ95); enzyme activity, inhibitor).
`COCCNC(=O)COc1ccccc1NC(=O)C(C(F)(F)F)C(F)(F)F` gave an IC50 of 110000 nM (Chymotrypsinogen A; enzyme activity, inhibitor, fluorescence).
`O=C(O)c1ccc(Oc2ccc(Cl)cc2NS(=O)(=O)c2ccc(Cl)c(Cl)c2)cc1` gave an IC50 of 3690 nM (C-C chemokine receptor type 1 (CCR1, Homo sapiens, UniProt P32246); antagonist; U2OS membranes; 25 °C, added: 20 nM CCL3).
With `Cc1c(Cc2ccc(OC(C)C(=O)O)cc2)c2ccc(C(=O)NC(C)c3cccc(C4CC4)c3)cc2n1C` (mixture of isomers) the IC50 was 12400 nM (PPARA ligand-binding domain; reporter gene, luciferase reporter; HEK293T, Gal4-PPARα LBD).
The IC50 of `Nc1ncc2c(n1)-c1c([nH]c3ccc(C#CC4CC4)cc13)CC2` is reported as 60 nM (Phosphatidylinositol 5-phosphate 4-kinase type-2 gamma (PIP4K2C, Homo sapiens, UniProt Q8TBX8); target engagement in cells, BRET).
`Cc1c(Cc2ccc(Cl)c(OC(C)C(=O)O)c2)c2ccc(C(=O)NCc3ccc(C(C)(C)C)cc3)cc2n1CC(C)C` (stereo not drawn) gave an IC50 of 2640 nM (PPARA ligand-binding domain; reporter gene, luciferase reporter; HEK293T, Gal4-PPARα LBD).
`CC(=O)NCCNC(=O)c1ccccc1NC(=O)C(C(F)(F)F)C(F)(F)F` has an IC50 of 132000 nM (Chymotrypsinogen A; enzyme activity, inhibitor, fluorescence).
`Cc1c(Cc2ccc(OC(C)(C)C(=O)O)cc2)c2ccc(C(=O)N[C@@H](C)c3ccc(C(F)(F)F)cc3)cc2n1C` gave an IC50 of 4560 nM (PPARA ligand-binding domain; reporter gene, luciferase reporter; HEK293T, Gal4-PPARα LBD).
`OC[C@@H]1[C@@H](O)[C@H](O)[C@@H](O)CN1CCCCCOCC1CCOCC1` has an IC50 of 35 nM (GBA2; inhibitor, 4MU-β-D-glucopyranoside; HEK293T homogenates overexpressing GBA2).
`Cc1c(Cc2cccc(OC(C)(C)C(=O)O)c2)c2ccc(C(=O)N[C@@H](C)c3ccc(C(C)C)cc3)cc2n1C` gave an IC50 of 9490 nM (PPARA ligand-binding domain; reporter gene, luciferase reporter; HEK293T, Gal4-PPARα LBD).
For `C[C@@H](NC(=O)C(C(F)(F)F)C(F)(F)F)c1ccccc1`, the IC50 was over 100000 nM (Chymotrypsinogen A; enzyme activity, inhibitor, fluorescence).
For `CCC[C@H](CC)Oc1ccc(C(C)(C)C)cc1NC(=O)c1nnn(-c2cc(C)c(OC)cc2OC)c1C`, the IC50 was 4.4 ± 1 nM (Nuclear receptor subfamily 1 group I member 2 (NR1I2, Homo sapiens, UniProt O75469); reporter gene, agonist; HepG2 transfected PXR and CYP3A4-luc; 24 h, DMSO 0%).
`Cc1onc(-c2ccccc2)c1CNC(=O)C(C(F)(F)F)C(F)(F)F` gave an IC50 of over 100000 nM (Chymotrypsinogen A; enzyme activity, inhibitor, fluorescence).
The IC50 of `CCCCCCCCCCCCNC(=S)NCCCC[C@H](NS(C)(=O)=O)C(=O)N[C@H](C)C(=O)N[C@@H](CCCNC(=N)N)C(N)=O` is reported as 50 nM (SIRT2; enzyme activity, inhibitor).
`COCCn1cc(COc2cccc(Cc3cnc(NC(=O)CSc4nc(C)cc(C)n4)s3)c2)nn1` gave an IC50 of 350 ± 130 nM (SIRT2; inhibitor).
The IC50 of `OC[C@@H]1[C@@H](O)[C@H](O)[C@@H](O)CN1CC(F)(F)CCCOCc1ccc(-c2ccccc2)cc1` is reported as 10 nM (GBA2; inhibitor, 4MU-β-D-glucopyranoside; HEK293T homogenates overexpressing GBA2).
For `Cc1c(COc2cc(OCc3cccc(C#N)c3)c(CNCCO)cc2Cl)cccc1-c1cccc(OCCCCCCC(=O)NO)c1`, the IC50 was 57.4 nM (Histone deacetylase 2 (HDAC2, Homo sapiens, UniProt Q92769); enzyme activity, inhibitor).

Excerpt of the above:
`CC(=O)NCCNC(=O)c1ccccc1NC(=O)C(C(F)(F)F)C(F)(F)F` has an IC50 of 132000 nM (Chymotrypsinogen A; enzyme activity, inhibitor, fluorescence).
`Cc1c(Cc2ccc(OC(C)(C)C(=O)O)cc2)c2ccc(C(=O)N[C@@H](C)c3ccc(C(F)(F)F)cc3)cc2n1C` gave an IC50 of 4560 nM (PPARA ligand-binding domain; reporter gene, luciferase reporter; HEK293T, Gal4-PPARα LBD).
`OC[C@@H]1[C@@H](O)[C@H](O)[C@@H](O)CN1CCCCCOCC1CCOCC1` has an IC50 of 35 nM (GBA2; inhibitor, 4MU-β-D-glucopyranoside; HEK293T homogenates overexpressing GBA2).
`Cc1c(Cc2cccc(OC(C)(C)C(=O)O)c2)c2ccc(C(=O)N[C@@H](C)c3ccc(C(C)C)cc3)cc2n1C` gave an IC50 of 9490 nM (PPARA ligand-binding domain; reporter gene, luciferase reporter; HEK293T, Gal4-PPARα LBD).
For `C[C@@H](NC(=O)C(C(F)(F)F)C(F)(F)F)c1ccccc1`, the IC50 was over 100000 nM (Chymotrypsinogen A; enzyme activity, inhibitor, fluorescence).
For `CCC[C@H](CC)Oc1ccc(C(C)(C)C)cc1NC(=O)c1nnn(-c2cc(C)c(OC)cc2OC)c1C`, the IC50 was 4.4 ± 1 nM (Nuclear receptor subfamily 1 group I member 2 (NR1I2, Homo sapiens, UniProt O75469); reporter gene, agonist; HepG2 transfected PXR and CYP3A4-luc; 24 h, DMSO 0%).
`Cc1onc(-c2ccccc2)c1CNC(=O)C(C(F)(F)F)C(F)(F)F` gave an IC50 of over 100000 nM (Chymotrypsinogen A; enzyme activity, inhibitor, fluorescence).
